Measured values from different studies.
Lines come from different studies, so protocols differ. Numbers after ± are the reported error.
Method: steady-state kinetics
B1: MsrP (Escherichia coli, UniProt P76342); chain DLLSWFKGNDRPPAPAGKALEFSKPAAWQNNLPLTPADKVSGYNNFYEFGLDKADPAANAGSLKTDPWTLKISGEVAKPLTLDHDDLTRRFPLEERIYRMRCVEAWSMVVPWIGFPLHKLLALAEPTSNAKYVAFETIYAPEQMPGQQDRFIGGGLKYPYVEGLRLDEAMHPLTLMTVGVYGKALPPQNGAPVRLIVPWKYGFKGIKSIVSIKLTRERPPTTWNLAAPDEYGFYANVNPYVDHPRWSQATERFIGSGGILDVQRQPTLLFNGYAAQVASLYRGLDLRENF
B2: MMP2 (Homo sapiens, UniProt P08253); chain YNFFPRKPKWDKNQITYRIIGYTPDLDPETVDDAFARAFQVWSDVTPLRFSRIHDGEADIMINFGRWEHGDGYPFDGKDGLLAHAFAPGTGVGGDSHFDDDELWTLGEGQVVRVKYGNADGEYCKFPFLFNGKEYNSCTDTGRSDGFLWCSTTYNFEKDGKYGFCPHEALFTMGGNAEGQPCKFPFRFQGTSYDSCTTEGRTDGYRWCGTTEDYDRDKKYGFCPETAMSTVGGNSEGAPCVFPFTFLGNKYESCTSAGRSDGKMWCATTANYDDDRKWGFCPDQGYSLFLVAAHEFGHAMGLEHSQDPGALMAPIYTYTKNFRLSQDDIKGIQELYGASPDIDLGTGPTPTLGPVTPEICKQDIVFDGIAQIRGEIFFFKDRFIWRTVTPRDKPMGPLLVATFWPELPEKIDAVYEAPQEEKAVFFAGNEYWIYSASTLERGYPKPLTSLGLPPDVQRVDAAFNWSKNKKTYIFAGDKFWRYNEVKKKMDPGFPKLIADAWNAIPDNLDAVVDLQGGGHSYFFKGAYYLKLENQSLKSVKFGSIKSDWLGC
B3: FNO G29L (Thermobifida fusca, UniProt Q47RA9); chain MIMIMASKSSPHDLPDVSGLSIAVLGGTLDQGRGLARRFAMAGHEVILGSRSAERAQAVAAELGEGLPVRGMDNAGAAEAGDVVIVAVPWDGHRALLESLKDVLAGKIVVDCVNPLGFDKRGAYALPVEEGSAAEQAAAILPDSRVVAAFHHVSAVLLLDPEVEKVDLDVLVLGDDREATDVVRALAARIPGVRGVYGGRLRNAHQVEAFTANLISINRRYKAHAGIRITDI
B4: sacB Y196F/Y247F (Priestia megaterium, UniProt D5DC07); chain KGNDSKDFNNSYGISHITRDNMVKIPQQQNSDQFKVPAFDESTIKNIASAKGKNASGNTIDLDVWDSWPLQNADGTVATYHGYQIVFALAGDPKDSNDTSVYLFYKKAGDKSIDSWKNAGRVFKDSDKFVPNDPHLKNQTQEWSGSGTLTKDGKVRLFYTDYSGKQFGKQTLTTAQVNMSQPNDNTLKVDGVEDYKSIFDGDGKIYQTVQQFIDEGGFDTGDNHTLRDPHYIEDNGHKYLVFEANTGTEDGYQGEDSLYNRAYYGGNNPFFQSEKKKLLEGSNKEKASLANGALGIIELNDDYTLKKVMKPLITSNTVTDEIERANIFKKDGKWYLFTDSRGSKMTIDGIGQDDVYMLGYVSNTLTGKYKPLNDTGLVLHMDLDPNDKTFTYSHFAVPQTKGDNVVITSYMTNRGFYEDNHSTFAPSFLVNIDGSKTSVVKDRVLEQGQLTVDED
B5: cyc1 F95H (Streptomyces coelicolor, UniProt Q9K499); chain MHAFPHGTTATPTAIAVPPSLRLPVIEAAFPRQLHPYWPKLQETTRTWLLEKRLMPADKVEEYADGLCYTDLMAGYYLGAPDEVLQAIADYSAWHFVWDDRHDRDIVHGRAGAWRRLRGLLHTALDSPGDHLHHEDTLVAGFADSVRRLYAFLPATWNARFARHFHTVIEAYDREFHNRTRGIVPGVEEYLELRRLTFAHWIWTDLLEPSSGCELPDAVRKHPAYRRAALLSQEFAAWYNDLCSLPKEIAGDEVHNLGISLITHHSLTLEEAIGEVRRRVEECITEFLAVERDALRFADELADGTVRGKELSGAVRANVGNMRNWFSSVYWFHHESGRYMVDSWDDRSTPPYVNNEAAGEK
B6: GTPBP3 E459K (Homo sapiens, UniProt Q969Y2); chain TRRSSGAPAPGSGATIFALSSGQGRCGIAVIRTSGPASGHALRILTAPRDLPLARHASLRLLSDPRSGEPLDRALVLWFPGPQSFTGEDCVEFHVHGGPAVVSGVLQALGSVPGLRPAEAGEFTRRAFANGKLNLTEVEGLADLIHAETEAQRRQALRQLDGELGHLCRGWAETLTKALAHVEAYIDFGEDDNLEEGVLEQADIEVRALQVALGAHLRDARRGQRLRSGVHVVVTGPPNAGKSSLVNLLSRKPVSIVSPEPGTTRDVLETPVDLAGFPVLLSDTAGLREGVGPVEQEGVRRARERLEQADLILAMLDASDLASPSSCNFLATVVASVGAQSPSDSSQRLLLVLNKSDLLSPEGPGPGPDLPPHLLLSCLTGEGLDGLLEALRKELAAVCGDPSTDPPLLTRARHQHHLQGCLDALGHYKQSKDLALAAKALRVARGHLTRLTGGGGTEEILDIIFQDFCVGK
B7: protein (Pseudomonas putida, UniProt Q1XGK8); chain MKEIKHFINGAFVGSASGRTFEDINPSNGQVIGHVHEAGRAEVDAAVKAARAALKGPWGKLSVAERAEILHRVADGITARFDEFLEAECLDTGKPKSLASHIDIPRGAANFKVFADLLKNVANEAFEMATPDGAGAINYAVRRPKGVIGVISPWNLPLLLMTWKVGPALACGNTVVVKPSEETPLTATLLGEVMQAAGVPAGVYNVVHGFGGDSAGAFLTEHPDVDAYTFTGETGTGEVIMRAAAKGVRQVSLELGGKNAGIVFADCDMDKAIEGTLRSAFANCGQVCLGTERVYVERPIFDEFVARLKAGAESLMIGPPDDASSNFGPLVSLKHREKVLSYYQQAVDDGGSVITGGGVPDMPAHLAGGAWVQPTIWTGLSDDSAVVTEEIFGPCCHIRPFDTEEEAIELANSLPYGLASAIWTENGSRAHRVAGQIEAGIVWVNSWFLRDLRTAFGGSKQSGIGREGGVHSLEFYTELKNICVKL
B8: GMPS (Escherichia coli, UniProt P04079); chain MTENIHKHRILILDFGSQYTQLVARRVRELGVYCELWAWDVTEAQIRDFNPSGIILSGGPESTTEENSPRAPQYVFEAGVPVFGVCYGMQTMAMQLGGHVEASNEREFGYAQVEVVNDSALVRGIEDALTADGKPLLDVWMSHGDKVTAIPSDFITVASTESCPFAIMANEEKRFYGVQFHPEVTHTRQGMRMLERFVRDICQCEALWTPAKIIDDAVARIREQVGDDKVILGLSGGVDSSVTAMLLHRAIGKNLTCVFVDNGLLRLNEAEQVLDMFGDHFGLNIVHVPAEDRFLSALAGENDPEAKRKIIGRVFVEVFDEEALKLEDVKWLAQGTIYPDVIESAASATGKAHVIKSHHNVGGLPKEMKMGLVEPLKELFKDEVRKIGLELGLPYDMLYRHPFPGPGLGVRVLGEVKKEYCDLLRRADAIFIEELRKADLYDKVSQAFTVFLPVRSVGVMGDGRKYDWVVSLRAVETIDFMTAHWAHLPYDFLGRVSNRIINEVNGISRVVYDISGKPPATIEWE
Chain of UniProt P49419 (whole entry, looked up): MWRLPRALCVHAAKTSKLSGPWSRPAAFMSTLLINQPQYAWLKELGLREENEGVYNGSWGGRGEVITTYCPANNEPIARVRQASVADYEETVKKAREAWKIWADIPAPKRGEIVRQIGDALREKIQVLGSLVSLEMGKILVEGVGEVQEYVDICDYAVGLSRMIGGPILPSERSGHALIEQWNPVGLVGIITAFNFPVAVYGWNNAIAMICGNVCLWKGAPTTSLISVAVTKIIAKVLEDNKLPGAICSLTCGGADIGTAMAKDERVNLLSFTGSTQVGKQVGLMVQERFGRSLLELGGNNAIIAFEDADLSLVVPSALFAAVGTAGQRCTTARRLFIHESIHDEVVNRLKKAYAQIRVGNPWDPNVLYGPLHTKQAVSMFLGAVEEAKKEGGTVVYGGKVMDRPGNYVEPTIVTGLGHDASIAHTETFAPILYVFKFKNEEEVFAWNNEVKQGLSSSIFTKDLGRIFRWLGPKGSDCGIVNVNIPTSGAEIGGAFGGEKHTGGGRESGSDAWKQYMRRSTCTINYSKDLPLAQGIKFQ
Chain of UniProt P0AB87 (whole entry, looked up): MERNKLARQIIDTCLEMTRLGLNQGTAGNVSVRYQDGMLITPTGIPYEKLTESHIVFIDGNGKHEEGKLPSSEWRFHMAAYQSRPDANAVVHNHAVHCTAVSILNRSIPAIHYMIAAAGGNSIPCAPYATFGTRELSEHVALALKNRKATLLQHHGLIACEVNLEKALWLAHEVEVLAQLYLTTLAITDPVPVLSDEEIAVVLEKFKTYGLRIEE
Chain of UniProt O48715 (whole entry, looked up): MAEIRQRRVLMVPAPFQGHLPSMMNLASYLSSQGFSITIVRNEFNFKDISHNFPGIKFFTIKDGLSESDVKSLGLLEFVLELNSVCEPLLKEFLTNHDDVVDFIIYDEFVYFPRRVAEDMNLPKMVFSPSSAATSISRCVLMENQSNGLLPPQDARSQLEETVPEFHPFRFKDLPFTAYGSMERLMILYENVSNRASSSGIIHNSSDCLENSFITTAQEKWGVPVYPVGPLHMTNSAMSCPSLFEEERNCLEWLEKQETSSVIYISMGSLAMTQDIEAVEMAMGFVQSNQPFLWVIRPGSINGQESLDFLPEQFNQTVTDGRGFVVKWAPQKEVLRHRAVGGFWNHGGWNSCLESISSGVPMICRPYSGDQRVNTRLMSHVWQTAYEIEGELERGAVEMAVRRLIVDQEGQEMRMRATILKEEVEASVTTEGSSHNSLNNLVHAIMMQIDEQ

B1 (MsrP) — kcat (C[S@@+]([O-])CC[C@H](N)C(=O)O; pH 7, 30 °C, added: benzyl viologen 0.4 mM): 168 ± 15 s⁻¹
enzyme (Arabidopsis thaliana, UniProt O48715) — kcat (O=c1ccn([C@@H]2O[C@H](CO[P@@](=O)(O)O[P@@](=O)(O)O[C@H]3O[C@H](CO)[C@@H](O)[C@H](O)[C@H]3O)[C@@H](O)[C@H]2O)c(=O)[nH]1; pH 7.5, 25 °C): 0.00476 s⁻¹
B2 (MMP2) — kcat (CSCC[C@H](NC(=O)CNC(=O)[C@H](CC(C)C)NC(=O)[C@@H]1CCCN1C(=O)CNC(C)=O)C(=O)N[C@@H](Cc1c[nH]cn1)C(=O)NCC(=O)N[C@@H](CCCCN)C(N)=O): 620 s⁻¹
B3 (FNO G29L) — kcat (CCC[n+]1cccc(C(N)=O)c1; pH 8, 25 °C, added: F420H2 40 µM): 0.006 ± 0.00095 s⁻¹
speG (Vibrio cholerae, UniProt Q9KL03) — kcat (NCCCCNCCCN; pH 9, 37 °C): 26.7 s⁻¹
B4 (sacB Y196F/Y247F) — kcat (OC[C@H]1O[C@@](CO)(O[C@H]2O[C@H](CO)[C@@H](O)[C@H](O)[C@H]2O)[C@@H](O)[C@@H]1O; pH 6.9): 309 ± 6.7 s⁻¹
B5 (cyc1 F95H) — kcat (CC(C)=CCC/C(C)=C/CC/C(C)=C/CO[P@@](=O)(O)OP(=O)(O)O; pH 6.5, 30 °C, added: MgCl2 10 mM): 0.00172 ± 2e-05 s⁻¹
B6 (GTPBP3 E459K) — kcat (Nc1nc2c(ncn2[C@@H]2O[C@H](COP(=O)(O)OP(=O)(O)OP(=O)(O)O)[C@@H](O)[C@H]2O)c(=O)[nH]1; pH 8, 37 °C, KCl 300 mM): 0.0282 ± 0.004 s⁻¹
B7 (protein) — kcat (O=C/C=C/C=C(\O)C(=O)O; pH 8.5, 25 °C, NaCl 50 mM, added: NAD+ 200 µM): 0.9 s⁻¹
B8 (GMPS) — kcat (O=c1[nH]c(=O)c2ncn([C@@H]3O[C@H](COP(=O)(O)O)[C@@H](O)[C@H]3O)c2[nH]1; apparent): 0.048 ± 0.003 s⁻¹
ALDH7A1 (Homo sapiens, UniProt P49419) — kcat (N[C@@H](CCCC=O)C(=O)O; pH 8, 26 °C, added: NAD+ 2.5 mM): 0.3 ± 0.01 s⁻¹
fucA (Escherichia coli, UniProt P0AB87) — kcat (C[C@@H](O)[C@@H](O)C(=O)COP(=O)(O)O; pH 7.8, 30 °C): 3.87 s⁻¹
